Measured values collected from several papers.
Every numbered part comes from another study and shows a few of its results, in no order.

Sample 1
Target: Histone acetyltransferase KAT6A, both winged helices, GST fusion (KAT6A, Homo sapiens, UniProt Q92794, residues 1-181)
Method: protein binding microarray
Molecule type: double-stranded DNA, one strand shown
Medium: in vitro
Concentration: not given
Setting: 8-mer, flanks averaged, mean of 2 arrays, mostly near background
Reference: not given
Reading: higher = stronger binding
Target sequence (chain): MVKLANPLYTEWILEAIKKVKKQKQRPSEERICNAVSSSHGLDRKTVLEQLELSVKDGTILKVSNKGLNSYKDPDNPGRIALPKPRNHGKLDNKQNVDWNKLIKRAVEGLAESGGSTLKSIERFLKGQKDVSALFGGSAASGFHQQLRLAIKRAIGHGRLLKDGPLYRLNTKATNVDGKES
For `ACCTATGG`, the E-score was -0.178.
With `GCAGGGGC` the E-score was 0.112.
`ACGTCAGC` has an E-score of 0.073.

Sample 2
Target: Interferon regulatory factor 5, full length, phosphomimetic (IRF5, Homo sapiens, UniProt Q13568-2, residues 1-514, S451D/S453D/S456D/S462D)
Method: protein-binding microarray
Molecule type: double-stranded DNA, one strand shown
Medium: in vitro
Concentration: 940 nM top
Setting: 60-bp whole probe
Added: salmon DNA 0.4 mg/ml
Reference: random background probes
Reading: higher = stronger binding
For `GCCTAGCACGTGTGTCTGATTATTTACATGTGCTAGGTCTTGATTCGCTTGACGCTGCTG`, “fitted relative affinity” read -0.0501 z-score.
For `GCCTAGCACTCATGATTACATATATGACTGTGCTAGGTCTTGATTCGCTTGACGCTGCTG`, “fitted relative affinity” read -0.236 z-score.
`GCCTAGCACGAAAATCCCACATTTGATAAAGTGCTAGTCTTGATTCGCTTGACGCTGCTG`: “fitted relative affinity” 0.436 z-score.
Under “fitted relative affinity”, `GCCTAGCACTCATCTGTCATGTTTGTCACTGTGCTAGTCTTGATTCGCTTGACGCTGCTG` is recorded as 0.518 z-score.

Further values, each from its own experiment
UNK zinc fingers 1-6, SBP tag: RING finger protein unkempt homolog, zinc fingers 1-6, SBP tag (UNK, Homo sapiens, UniProt Q9C0B0, residues 30-357)
UniProt Q9C0B0, sequence (30-357, looked up): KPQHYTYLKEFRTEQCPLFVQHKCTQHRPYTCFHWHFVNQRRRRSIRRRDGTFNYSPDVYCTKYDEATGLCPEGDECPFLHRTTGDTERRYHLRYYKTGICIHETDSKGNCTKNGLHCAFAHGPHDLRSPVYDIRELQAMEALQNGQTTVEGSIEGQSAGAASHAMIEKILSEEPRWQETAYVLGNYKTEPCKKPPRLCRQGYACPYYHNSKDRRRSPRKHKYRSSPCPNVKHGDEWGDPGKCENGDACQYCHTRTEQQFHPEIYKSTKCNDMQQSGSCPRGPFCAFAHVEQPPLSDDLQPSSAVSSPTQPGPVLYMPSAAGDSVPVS
`GGGAGUUCUACAGUCCGACGAUCGCCUCCAACAGGCAAAUUCAGGGAGAGGUAGGUUUCAGGGAAUAUAAAUUUACUUAAUAUUAGUGGUCUUUAAGUAUAAACUUGAUGUAAUUGGUUUGGGAGGGGCAGUGAUAAUGACUUCAACAGAGGAUUGAGCAUCA` has a bound/input enrichment of 1.23 ratio (UNK zinc fingers 1-6, SBP tag; RNA Bind-n-Seq; RNA, in vitro; 100 nM, RNA with constant flanks, vertebrate orthologous sites, ends assumed; reference: input RNA pool, higher = stronger binding).
With `PhoQ, residues 284 288 289 292 302 303 TVTVVA` the fold induction was 2.17 (PhoP, residues 12 14 15 18 19 NQAHL (Escherichia coli, UniProt P23836); Sort-seq, measured: YFP reporter; E. coli; PhoQ-PhoP variant library, added: 10 µM Mg2+; reference: high Mg2+ state, higher = stronger signaling).
With `GGGAGUUCUACAGUCCGACGAUCUAGUACUUAAGCCAACAACAGUUCUAAAAUGCUAUUUAUUUGUGUCUGUAAGAUUGUACAUAUACUACCAACCUCAUACUGUUGUGGAUUUUUUUCUCACAAGCUUGAGUUUAGGUUUUUCAACAGAGGAUUGAGCAUCA` the bound/input enrichment was 0.481 ratio (UNK zinc fingers 1-6, SBP tag; RNA Bind-n-Seq; RNA, in vitro; 100 nM, RNA with constant flanks, vertebrate orthologous sites, ends assumed; reference: input RNA pool, higher = stronger binding).
`GGGAGUUCUACAGUCCGACGAUCCUAUGCCUAACAGAGCCCCAGUACAACUAUUGAGCAGAAUAGCUGUUUCCUGAGAAUUACCACCGCUCACUGGGACUGGCACUCCCUAGAUAGAAACUGAUCCCAGUAAUAAACUUUGAUCAACAGAGGAUUGAGCAUCA` gave a bound/input enrichment of 1.53 ratio (RING finger protein unkempt homolog, zinc fingers 1-6, GST-SBP tag (UNK, Homo sapiens, UniProt Q9C0B0, residues 30-357); RNA Bind-n-Seq; RNA, in vitro; not given, RNA with constant flanks, ends assumed; reference: input RNA pool, higher = stronger binding).

Excerpt of the above (sample 1):
For `ACCTATGG`, the E-score was -0.178.
